Measurements pooled from the literature.
Numbered parts are unrelated; each lists some results of a single study. Positions count from the first letter of the parent shown.

Sample 1
Target: CREBRF, bZIP domain (human)
Method: DHFR protein complementation
Matrix: yeast
Setting: single substitutions, most at no-binding floor
Baseline: wild-type JUN-FOS pair
Reading: higher = stronger binding
Measurement: binding fitness
Starting sequence: JUN, bZIP domain (human); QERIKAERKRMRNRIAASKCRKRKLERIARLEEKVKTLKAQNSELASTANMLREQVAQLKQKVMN; partner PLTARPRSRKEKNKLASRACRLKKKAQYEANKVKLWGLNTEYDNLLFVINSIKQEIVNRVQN
Change = A57L; result = -1.57 natural log
Change = R30A; result = -1.17 natural log
Change = R53P; result = -1.5 natural log
Change = Q55H; result = -1.5 natural log
Change = V35C; result = -1.58 natural log
Change = K34P; result = -1.51 natural log
Change = T37Q; result = -1.56 natural log
Change = Q41P; result = -1.48 natural log
Change = K34R; result = -1.39 natural log
Change = L52D; result = -1.52 natural log
Change = E54Q; result = -1.38 natural log
Change = A49C; result = -1.49 natural log
Change = I28K; result = -1.47 natural log
Change = L45N; result = -1.51 natural log
Change = S47L; result = -1.5 natural log
Change = Q55C; result = -1.6 natural log

Sample 2
Target: CCNB1, cyclin fold, Cln2 fusion (human)
Method: yeast growth competition, sequencing
Matrix: yeast
Setting: weak parent motif
Baseline: not given
Reading: higher = stronger binding
Measurement: normalised enrichment score
Starting sequence: WEE1 docking peptide (human); HKTFRKLRLFDTP
Change = H1A; result = 0.331
Change = T12V; result = 1.08
Change = T12G; result = 1.5
Change = D11K; result = 0.37
Change = D11L; result = 0.828
Change = T3Q; result = 0.385
Change = P13G; result = -0.383
Change = K6H; result = 0.196
Change = R8K; result = 0.0774
Change = F4G; result = 0.299
Change = K2P; result = 0.236
Change = L7T; result = 0.284
Change = L7W; result = 0.401
Change = T3G; result = 1.68

Sample 3
Target: Protein max, full length (MAX, Homo sapiens, UniProt P61244-2, residues 1-151)
Method: protein-binding microarray
Form: double-stranded DNA, one strand shown
Matrix: in vitro
Concentration: not given
Setting: k-mer, scored over probes, only values ≥0.25
Reading: higher = stronger binding
Measurement: E-score
Oligonucleotide = ACGCGCCC; result = 0.261
Oligonucleotide = AAGCATGT; result = 0.427
Oligonucleotide = CGTGGCAG; result = 0.374
Oligonucleotide = ACGTTAGG; result = 0.291
Oligonucleotide = AAGCGTGT; result = 0.384
Oligonucleotide = ACGTCACA; result = 0.275
Oligonucleotide = AACGTGGC; result = 0.432
Oligonucleotide = CAGGTGAC; result = 0.363
Oligonucleotide = ACGTGCCG; result = 0.437
Oligonucleotide = CAGGTGCA; result = 0.319
Oligonucleotide = ACATGCAA; result = 0.331
Oligonucleotide = CGTGCTTC; result = 0.389
Oligonucleotide = ACGTGCGA; result = 0.447
Oligonucleotide = ACGTTCTA; result = 0.25
Oligonucleotide = GACCACAC; result = 0.284
Oligonucleotide = GATCACGC; result = 0.411
Oligonucleotide = CATGCGAC; result = 0.424

Sample 4
Target: RNA binding protein fox-1 homolog 2, RRM domain, GST-SBP tag (RBFOX2, Homo sapiens, UniProt O43251-10, residues 100-194)
Method: RNA Bind-n-Seq
Form: RNA
Matrix: in vitro
Concentration: 365 nM
Setting: natural RNA segment, single round, ends assumed
Baseline: no-protein control
Reading: higher = stronger binding
Measurement: RBNS enrichment (R)
Shared flanks, not repeated: GGGAGUUCUACAGUCCGACGAUC … UGGAAUUCUCGGGUGCCAA
Construct (chain): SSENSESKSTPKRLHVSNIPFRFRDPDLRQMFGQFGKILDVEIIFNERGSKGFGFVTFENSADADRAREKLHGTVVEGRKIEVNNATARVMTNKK
Oligonucleotide = UUUCAAGCCAUGUAAUCCAUUAAUUUUGUGGGAAGCUUAAUAAAUCAGAAGCUUUUAUUUCUUCUUAUUUUAAUUGUAUCUUAGUUGACUGAAUUUUGGUGAAGUUUUUU; result = 0.838
Oligonucleotide = ACAGUCGUACUUUUAUAAAGCGGUAUUUGGGUGUUUUUUCCCUCGAAUAGGUACUUUUGGAAGUUCAAAGCAAGUGGCAAACUUUCAUAUAAACAUGUUAAAUGCAGGAU; result = 0.292
Oligonucleotide = UAGACAGAGAGGGACGUGGGCAUGUUUUAUUUGGAGGGAUGUUUAUUCCCUGAGAUUACAGAAGUACCCAGAAGUGUCUGGGAUCCCUGUCACAUCUGUGUCAUGUUGUU; result = 0.566
Oligonucleotide = CUUGUCCCGCCUCAUCCACAGAAAGGGAGGAUGGGCGAUGACAGUUGUUUCUAUGCCUUCUGACCCAGUUUCCCAGUUUAUAACUUUAUGACAAUGAGUUUCUCAAGCCC; result = 0.638
Oligonucleotide = CCAGGGUUGCUUGGAGAAGGCUCAGUGUGCCUGGGACAGGGCUUACCACCUGCCACCAAGGUUUCCUCUCUUCCCCCAGGACCUGGGCAGAGCAGGCAUGAGCUGGGCUG; result = 2.19
Oligonucleotide = GAGUUCAGAGCUGAGUACUUGUACCUGAGGGAGGGCCCCCAGCCAAUCUGGGCUGGUCCUUCUAUAUUCUUGGUCCCAGUUGGUCAUAACACCAAGGGCUUUGCCCUGCG; result = 0.179
Oligonucleotide = AAAACAUAGAAGUCAUUGUUAGUCUUGAAUUCAGCAAGCGUUAAUCAAUCUAUAUUUAAUUCAGUUCAGUGGCAUUCAUUAAGGAUGAAUUAAUCACUAUAGGAUUAAGC; result = 0.385
Oligonucleotide = AAACCCUCUUCAGAGCAAGCGUGGAGGAUGAUGGAGAAUCGUGUGAUCAGUGUGCUAAAUCUCUCUGCCUGUUUGGACUUUGUAAUUAUUUUUUUAGCAGUAAUUAAAGA; result = 3.54
Oligonucleotide = CUGCAAGUGGACAAAGGAACAAGCCCCCAGAAAAGAAAGGGAAGAACUGCCUUCUUAUACUACAGAACAUGCAUUAGUGUGGGCUAUAUAGCUGUGGCUCAUGCUACCCA; result = 0.635
Oligonucleotide = GACUGCUUUCACUCGGCCUGAUGGACAAGCCCGCGUGUGUUCACGUCUGUGUGUAACUCACCCAGAGCAGAUCUGUGAGUCUCGAUGUGCUUUGUAAUCUCUGCUUGAGU; result = 0.696
Oligonucleotide = AAGAAAGAAAUAACAUGGAAUUCUAUUUGAAGGACAACAGAACAUUCUUGGAAAAGCAGCUCCAGUUGGUUUUUCAACUGUCAAACUUGAAUGUGUAAGUCCCCACAGAG; result = 0.501
Oligonucleotide = AUGUUUUCCUGGGCUUCAUAUCUGUAUGGCAAGGAGGGAGCUGUCCUUCAGCAGACAAAGUCAAGCAGCUUUAAGUACAAGGCAGCUUGAAACCUCUCUGAUGAAAGUGA; result = 0.233

Excerpt of the above (sample 4):
Oligonucleotide = CUUGUCCCGCCUCAUCCACAGAAAGGGAGGAUGGGCGAUGACAGUUGUUUCUAUGCCUUCUGACCCAGUUUCCCAGUUUAUAACUUUAUGACAAUGAGUUUCUCAAGCCC; result = 0.638
Oligonucleotide = CCAGGGUUGCUUGGAGAAGGCUCAGUGUGCCUGGGACAGGGCUUACCACCUGCCACCAAGGUUUCCUCUCUUCCCCCAGGACCUGGGCAGAGCAGGCAUGAGCUGGGCUG; result = 2.19
Oligonucleotide = GAGUUCAGAGCUGAGUACUUGUACCUGAGGGAGGGCCCCCAGCCAAUCUGGGCUGGUCCUUCUAUAUUCUUGGUCCCAGUUGGUCAUAACACCAAGGGCUUUGCCCUGCG; result = 0.179
Oligonucleotide = AAAACAUAGAAGUCAUUGUUAGUCUUGAAUUCAGCAAGCGUUAAUCAAUCUAUAUUUAAUUCAGUUCAGUGGCAUUCAUUAAGGAUGAAUUAAUCACUAUAGGAUUAAGC; result = 0.385
Oligonucleotide = AAACCCUCUUCAGAGCAAGCGUGGAGGAUGAUGGAGAAUCGUGUGAUCAGUGUGCUAAAUCUCUCUGCCUGUUUGGACUUUGUAAUUAUUUUUUUAGCAGUAAUUAAAGA; result = 3.54
Oligonucleotide = CUGCAAGUGGACAAAGGAACAAGCCCCCAGAAAAGAAAGGGAAGAACUGCCUUCUUAUACUACAGAACAUGCAUUAGUGUGGGCUAUAUAGCUGUGGCUCAUGCUACCCA; result = 0.635
Oligonucleotide = GACUGCUUUCACUCGGCCUGAUGGACAAGCCCGCGUGUGUUCACGUCUGUGUGUAACUCACCCAGAGCAGAUCUGUGAGUCUCGAUGUGCUUUGUAAUCUCUGCUUGAGU; result = 0.696
